Results gathered from unrelated publications.
Several values in a cell are separate wells, animals, samples, runs or records. ± marks the error that the study gave.

Structure (SMILES) | tested on | assay | test system | setting | scale | quantity | value
CCn1ccc(-c2cc([C@@H](C)NC(=O)c3cc(OC[C@@H]4CCN4C)ccc3C)c3ccccc3n2)n1 | Vero E6 |  |  | 500 µM |  | viability | 0.896% and 0.448% and 1.34%
CC(C)C[C@H](NC(=O)[C@H](Cc1ccccc1)NC(=O)CNC(=O)CNC(=O)[C@@H](N)Cc1ccc(O)cc1)C(=O)N[C@@H](CSCB(O)O)C(N)=O |  | RP-HPLC | PBS | concentration not given, 24 h, pH 7.4, together with: GSH 1 mM |  | peptide remaining intact | 76%
O=C(Nc1cccs1)c1cccnc1 |  |  | mouse | intravenous, 5 mg/kg |  | brain to plasma AUC ratio | 6
CC(C)[C@@H]1NC(=O)CNC(=O)[C@H](CC(N)=O)NC(=O)[C@H](CCCNC(=N)N)NC(=O)[C@H](Cc2ccc(O)cc2)NC(=O)[C@H](C(C)C)NC(=O)[C@@H](NC(=O)[C@@H](NC(=O)[C@H](CC(N)=O)NC(=O)[C@H](Cc2c[nH]c3ccccc23)NC(=O)[C@H](C)NC(=O)[C@H](Cc2ccccc2)NC(=O)CNC(=O)[C@H](CCCCN)NC(=O)[C@H](Cc2ccccc2)NC(=O)[C@H](Cc2ccccc2)NC(=O)[C@H](CCCCN)NC(=O)OCC2c3ccccc3-c3ccccc32)C(C)C)CSSC[C@@H](C(=O)N[C@@H](Cc2c[nH]cn2)C(=O)N[C@@H](CCCNC(=N)N)C(=O)N[C@@H](CCCNC(=N)N)C(=O)N[C@@H](C)C(=O)N[C@@H](CC(N)=O)C(N)=O)NC(=O)[C@H](C(C)C)NC(=O)[C@H](CCCNC(=N)N)NC1=O |  |  | ICR mice, blood | intraperitoneal, 10 mg/kg, day 5 |  | lymphocytes | 72.9 ± 2.4%
CCN(CCCCOc1ccc(CCC(=O)N2CCC(Cc3ccccc3)CC2)cc1OC)Cc1ccccc1 |  |  | Sprague-Dawley rats, both sexes, urine | oral gavage, 25 mg/kg, 12 to 24 h | reference: dose | excretion rate | 0.0058 ± 0.0025%
N=C(N)NCCC[C@@H](NC(=O)[C@H](N)Cc1c[nH]c2ccccc12)C(=O)N[C@H](CCCCN)C(=O)N[C@H](Cc1c[nH]c2ccccc12)C(=O)N[C@H](CCCNC(=N)N)C(=O)N[C@H](CCCCN)C(=O)N[C@H](Cc1c[nH]c2ccccc12)C(=O)N[C@H](CCCNC(=N)N)C(=O)N[C@H](CCCCN)C(=O)N[C@H](Cc1c[nH]c2ccccc12)C(=O)N[C@H](CCCNC(=N)N)C(=O)N[C@H](CCCCN)C(N)=O |  |  | mouse | intraperitoneal, 30 mg/kg single dose, day 4 |  | survival | 100%
COc1c(N2CC3CCCNC3C2)c(F)cc2c(=O)c(C(=O)OCc3cnc([N+](=O)[O-])n3C)cn(C3CC3)c12 (stereo not drawn) |  | cyclic voltammetry | anhydrous acetonitrile | concentration not given | reference: Ag/AgCl | reduction potential | -0.95 V
N#[11C]c1ccc(-c2csc(NN=C3CCCC3)n2)cc1 |  |  | C57BL/6 mice, male, kidney | intravenous, 3 MBq, 15 min |  | radioactivity uptake | 12.3 ± 0.22 %ID/g
CC1(C)C(=O)N(c2ccc(C#N)c(C(F)(F)F)c2)C(=S)N1c1ccc(C(=O)O)c(F)c1 |  |  | human, male, plasma | oral, 80 mg, single dose, fasting |  | AUC(0-t) | 24000 ± 4330 ng·h/mL
CC(C)NCCCn1c(Sc2cc3c(cc2I)OCO3)nc2c(N)ncnc21 |  |  | cancer patients, tumour biopsy | intravenous, single dose above 180 mg/m^2, 24 h |  | tumour concentration | > 5 µM
CC[C@H](C)[C@H](NC(=O)[C@H](CCCCN)NC(=O)CNC(=O)[C@H](CC(C)C)NC(=O)[C@H](Cc1ccccc1)NC(=O)[C@H](CCCCN)NC(=O)[C@H](CO)NC(=O)[C@H](Cc1ccccc1)NC(=O)[C@H](Cc1c[nH]c2ccccc12)NC(=O)[C@H](CCC(N)=O)NC(=O)[C@@H](NC(=O)[C@H](Cc1ccccc1)NC(=O)CCCCCNC(=O)CN1CCN(CC(=O)O)CCN(CC(=O)O)CCN(CC(=O)O)CC1)C(C)C)C(=O)N[C@@H](CCC(=O)O)C(=O)N1CCC[C@H]1C(=O)N[C@@H](CC(=O)O)C(=O)N[C@H](C(=O)N[C@@H](CO)C(=O)N[C@@H](CCC(N)=O)C(=O)N[C@H](C(=O)N[C@@H](CCC(N)=O)C(=O)N[C@@H](CC(=O)O)C(=O)N1CCC[C@H]1C(=O)N[C@@H](CC(N)=O)C(=O)N[C@@H](CC(=O)O)C(=O)N[C@@H](CCC(N)=O)C(=O)N[C@@H](Cc1ccc(O)cc1)C(=O)N[C@@H](CCC(=O)O)C(=O)N1CCC[C@H]1C(=O)N[C@@H](Cc1ccccc1)C(=O)O)C(C)C)C(C)C [copper-64 labelled] |  |  | C57BL/6 mice, male, naive, white fat | 24 h |  | tissue uptake | 0.33 ± 0.1 %ID/g
O=C1NC2(CC2)COc2ncc(F)cc2[C@H]2COCCN2c2ccn3ncc1c3n2 |  |  | Sprague-Dawley rat, female, spleen | oral, 2.5 mg/kg/day, 4 weeks dosing, end of recovery |  | organ-to-brain weight ratio | 41.9 ± 11.3%
CC[C@H](C)[C@H](NC(=O)[C@H](C)NC(=O)[C@H](C)NC(=O)[C@H](CCC(N)=O)NC(=O)CNC(=O)[C@H](CC(C)C)NC(=O)[C@H](Cc1c[nH]cn1)NC(=O)[C@H](CCCCN)NC(=O)[C@H](C)NC(=O)CNC(=O)[C@H](CCCCN)NC(=O)[C@H](CCCNC(=N)N)NC(=O)[C@H](CC(C)C)NC(=O)[C@H](Cc1c[nH]c2ccccc12)NC(=O)[C@H](CCCCN)NC(=O)[C@H](CCCCN)NC(=O)[C@H](Cc1c[nH]c2ccccc12)NC(=O)CN)C(=O)N[C@@H](CCCCN)C(=O)NCC(=O)N[C@@H](CC(C)C)C(=O)N[C@@H](C)C(=O)N[C@@H](CO)C(=O)O |  |  | zebrafish embryos 4 hpf, E3 medium | 1 h |  | acute toxic concentration | 5 µM
COc1ccc(CNc2ccc3c(c2)S(=O)(=O)C=C3)cc1 |  |  | male C57BL/6 mice, blood | intraperitoneal, 20 mg/kg, day 8, group average |  | mean corpuscular haemoglobin concentration | 293 g/L
CCn1ccc(-c2cc([C@@H](C)NC(=O)c3cc(N4CCN(C)[C@H](C)C4)ccc3C)c3ccccc3n2)n1 | Vero E6 |  |  | 15.62 µM |  | viability | 92.6% and 88.1% and 92.1%
